Experimental data of several laboratories.
Each line is one published result; not all experiments were run side by side. ± marks the error that the study gave.

Structure (SMILES) | system | conditions | how to read | tissue uptake
CN[C@](C)(C[18F])C(=O)O | SCID mouse A549 xenograft, tumour | 30 min post injection | – | 4.5 ± 0.3 %ID/g
CN(C)c1ccc(C(=O)NCCCCN2CCN(c3ccccc3O[11CH3])CC2)cc1 | male Sprague Dawley rat, blood | iv, 5 min | baseline: untreated | 0.057 ± 0.011 %ID/g
O=C(O)CC[C@H](NC(=O)O[C@@H](CCCCNC(=O)c1ccc([18F])cc1)C(=O)O)C(=O)O | mouse, PC-3 PIP/flu xenografts, small intestine | 60 min | – | 0.54 ± 0.19 %ID/g
CCNc1cc2[o+]c3cc(NCC)c(C)cc3c(-c3ccccc3C(=O)OCCOCC[18F])c2cc1C | rat, muscle | 60 min | – | 0.12 ± 0.03 %ID/g
N=C(N)NCc1ccc(C(=O)NCCCC[C@H](NC(=O)CCCCCCC(=O)NCCCC[C@H](NC(=O)N[C@@H](CCC(=O)O)C(=O)O)C(=O)O)C(=O)O)cc1[211At] | SCID mouse, PC-3 xenografts, spleen | 21 h | – | 2.07 ± 0.68 %ID/g
O=C(c1ccc(F)cc1)C1CCN(C2Cc3c(cccc3OCC[18F])CC2O)CC1 (single isomer, unassigned; (-)) | Sprague-Dawley rat, male, bone | intravenous, dose not given, 60 min | – | 0.403 ± 0.095 %ID/g
C=Cc1cc(O)cc2nc(-c3ccc(O)c([76Br])c3)oc12 | female C57BL/6 mouse, kidney | 1 h, high dose, added: estradiol 20 µg blocking | – | 0.93 ± 0.23 %ID/g
N=C(N)NCc1ccc(C(=O)NCCCC[C@H](NC(=O)N[C@@H](CCC(=O)O)C(=O)O)C(=O)O)cc1[211At] | SCID mouse, PC-3 xenografts, thyroid | 14 h | – | 0.74 ± 0.27 %ID/g
COc1cc2ncnc(Oc3cccc(N[11C](=O)Nc4cc(C(C)(C)C(F)(F)F)on4)c3)c2cc1OC | Balb/c nude mouse, female, A375 melanoma xenograft, muscle | 6.6 MBq, 30 min | – | 2.03 ± 0.11 %ID/g
CCN(CC)c1ccc2c(-c3ccccc3C(=O)OCCC[18F])c3ccc(=[N+](CC)CC)cc-3oc2c1 | rat, spleen | 60 min | – | 3.82 ± 0.32 %ID/g
N=C(N)NCc1ccc(C(=O)NCCCC[C@H](NC(=O)N[C@@H](CCC(=O)O)C(=O)O)C(=O)O)cc1[131I] | SCID mouse, PC-3 xenografts, thyroid | 1 h | – | 0.34 ± 0.13 %ID/g
COc1ccc(C)cc1NC(=O)OC1CC2CCCC(C1)N2Cc1ccc(CC[18F])cc1 (centres unmarked) | BALB/c mice, EMT6 tumour, lung | 5 min | – | 111 ± 13.5 %ID/g
N=C(N)NCc1ccc(C(=O)NCCCC[C@H](NC(=O)CCCCCCC(=O)NCCCC[C@H](NC(=O)N[C@@H](CCC(=O)O)C(=O)O)C(=O)O)C(=O)O)cc1[131I] | SCID mouse, PC-3 xenografts, brain | 2 h | – | 0.04 ± 0.02 %ID/g
CCN(CC)c1ccc2c(-c3ccccc3C(=O)OCCOCC[18F])c3ccc(=[N+](CC)CC)cc-3oc2c1 | rat, blood | 60 min | – | 0.25 ± 0.02 %ID/g
